Experimental data gathered from unrelated publications.
Lines come from different studies, so protocols differ.
Method: steady-state kinetics
B1: SULT1A1 I89A (Homo sapiens, UniProt P50225); chain MELIQDTSRPPLEYVKGVPLIKYFAEALGPLQSFQARPDDLLISTYPKSGTTWVSQILDMIYQGGDLEKCHRAPIFMRVPFLEFKAPGAPSGMETLKDTPAPRLLKTHLPLALLPQTLLDQKVKVVYVARNAKDVAVSYYHFYHMAKVHPEPGTWDSFLEKFMVGEVSYGSWYQHVQEWWELSRTHPVLYLFYEDMKENPKREIQKILEFVGRSLPEETVDFVVQHTSFKEMKKNPMTNYTTVPQEFMDHSISPFMRKGMAGDWKTTFTVAQNERFDADYAEKMAGCSLSFRSEL
B2: tsaM1 F253S/G291W/H204M/H255G/M230N/R216A/S234V/S257H/T232I/Y220I (Comamonas testosteroni, UniProt P94679); chain MFIRNCWYVAAWDTEIPAEGLFHRTLLNEPVLLYRDTQGRVVALENRCCHRSAPLHIGRQEGDCVRCLYHGLKFNPSGACVEIPGQEQIPPKTCIKSYPVVERNRLVWIWMGDPARANPDDIVDYFWHDSPEWRMKPGYIHYQANYKLIVDNLLDFTHLAWVHPTTLGTDSAASLKPVIERDTTGTGKLTITRWYLNDDMSNLMKGVAKFEGKADAWQIIQWSPPALLRNDIGVAPTGTGAPEGRRVPEAVQSRGTHIQTPETETTSHYWFCQARNFDLDDEALTEKIYQWVVVAFEEDRTMIEAHEKILSQVPDRPMVPIAADAGLNQGRWLLDRLLKAENGGTAP
B3: enzyme D382A (Arabidopsis thaliana, UniProt O82390); chain MNARALLCSSNIHSLYTSNRPPEKTSSSRSLRNLKPSPKSLRVWIYPRNRSSVFRVLVRSSDKSESSNSYYVEGDKVSGNNDVVSDSPSSIVLPWWEEFPKRWVIVLLCFSAFLLCNMDRVNMSIAILPMSAEYGWNPATVGLIQSSFFWGYLLTQIAGGIWADTVGGKRVLGFGVIWWSIATILTPVAAKLGLPYLLVVRAFMGVGEGVAMPAMNNILSKWVPVQERSRSLALVYSGMYLGSVTGLAFSPFLIHQFGWPSVFYSFGSLGTVWLTLWLTKAESSPLEDPTLLPEERKLIADNCASKEPVKSIPWRLILSKPPVWALISCHFCHNWGTFILLTWMPTYYHQVLKFNLMESGLLSVFPWMTMAISANAGGWIAATLVSRGFSVTNVRKIMQTIGFLGPAFFLTQLKHIDSPTMAVLCMACSQGTDAFSQSGLYSNHQDIAPRYSGVLLGLSNTAGVLAGVLGTAATGHILQHGSWDDVFTISVGLYLVGTVIWNLFSTGEKIID
B4: SULT1B1 E275K (Homo sapiens, UniProt O43704); chain MLSPKDILRKDLKLVHGYPMTCAFASNWEKIEQFHSRPDDIVIATYPKSGTTWVSEIIDMILNDGDIEKCKRGFITEKVPMLEMTLPGLRTSGIEQLEKNPSPRIVKTHLPTDLLPKSFWENNCKMIYLARNAKDVSVSYYHFDLMNNLQPFPGTWEEYLEKFLTGKVAYGSWFTHVKNWWKKKEEHPILFLYYEDMKENPKEEIKKIIRFLEKNLNDEILDRIIHHTSFEVMKDNPLVNYTHLPTTVMDHSKSPFMRKGTAGDWKNYFTVAQNKKFDAIYETEMSKTALQFRTEI
B5: ADA (Homo sapiens, UniProt P00813); chain MAQTPAFDKPKVELHVHLDGSIKPETILYYGRRRGIALPANTAEGLLNVIGMDKPLTLPDFLAKFDYYMPAIAGCREAIKRIAYEFVEMKAKEGVVYVEVRYSPHLLANSKVEPIPWNQAEGDLTPDEVVALVGQGLQEGERDFGVKARSILCCMRHQPNWSPKVVELCKKYQQQTVVAIDLAGDETIPGSSLLPGHVQAYQEAVKSGIHRTVHAGEVGSAEVVKEAVDILKTERLGHGYHTLEDQALYNRLRQENMHFEICPWSSYLTGAWKPDTEHAVIRLKNDQANYSLNTDDPLIFKSTLDTDYQMTKRDMGFTEEEFKRLNINAAKSSFLPEDEKRELLDLLYKAYGMPPSASAGQNL
B6: asnB E349D (Escherichia coli, UniProt P22106); chain CSIFGVFDIKTDAVELRKKALELSRLMRHRGPDWSGIYASDNAILAHERLSIVDVNAGAQPLYNQQKTHVLAVNGEIYNHQALRAEYGDRYQFQTGSDCEVILALYQEKGPEFLDDLQGMFAFALYDSEKDAYLIGRDHLGIIPLYMGYDEHGQLYVASEMKALVPVCRTIKEFPAGSYLWSQDGEIRSYYHRDWFDYDAVKDNVTDKNELRQALEDSVKSHLMSDVPYGVLLSGGLDSSIISAITKKYAARRVEDQERSEAWWPQLHSFAVGLPGSPDLKAAQEVANHLGTVHHEIHFTVQEGLDAIRDVIYHIETYDVTTIRASTPMYLMSRKIKAMGIKMVLSGDGSDEVFGGYLYFHKAPNAKELHEETVRKLLALHMYDCARANKAMSAWGVEARVPFLDKKFLDVAMRINPQDKMCGNGKMEKHILRECFEAYLPASVAWRQKEQFSDGVGYSWIDTLKEVAAQQVSDQQLETARFRFPYNTPTSKEAYLYREIFEELFPLPSAAECVPGGPSVACSSAKAIEWDEAFKKMDDPSGRAVGVHQSAYK
B7: Mj-MAT W387F/Y170W (Methanocaldococcus jannaschii, UniProt Q58605); chain MRNIIVKKLDVEPIEERPTEIVERKGLGHPDSICDGIAESVSRALCKMYMEKFGTILHHNTDQVELVGGHAYPKFGGGVMVSPIYILLSGRATMEILDKEKNEVIKLPVGTTAVKAAKEYLKKVLRNVDVDKDVIIDCRIGQGSMDLVDVFERQKNEVPLANDTSFGVGWAPLSTTERLVLETERFLNSDELKNEIPAVGEDIKVMGLREGKKITLTIAMAVVDRYVKNIEEYKEVIEKVRKKVEDLAKKIADGYEVEIHINTADDYERESVYLTVTGTSAEMGDDGSVGRGNRVNGLITPFRPMSMEAASGKNPVNHVGKIYNILANLIANDIAKLEGVKECYVRILSQIGKPINEPKALDIEIITEDSYDIKDIEPKAKEIANKFLDNIMEVQKMIVEGKVTTF
B8: CODH (Afipia carboxidovorans, UniProt P19920); chain MIPGSFDYHRPKSIADAVALLTKLGEDARPLAGGHSLIPIMKTRLATPEHLVDLRDIGDLVGIREEGTDVVIGAMTTQHALIGSDFLAAKLPIIRETSLLIADPQIRYMGTIGGNAANGDPGNDMPALMQCLGAAYELTGPEGARIVAARDYYQGAYFTAIEPGELLTAIRIPVPPTGHGYAYEKLKRKIGDYATAAAAVVLTMSGGKCVTASIGLTNVANTPLWAEEAGKVLVGTALDKPALDKAVALAEAITAPASDGRGPAEYRTKMAGVMLRRAVERAKARAKN
Sequence of UniProt P22309 (whole entry, looked up): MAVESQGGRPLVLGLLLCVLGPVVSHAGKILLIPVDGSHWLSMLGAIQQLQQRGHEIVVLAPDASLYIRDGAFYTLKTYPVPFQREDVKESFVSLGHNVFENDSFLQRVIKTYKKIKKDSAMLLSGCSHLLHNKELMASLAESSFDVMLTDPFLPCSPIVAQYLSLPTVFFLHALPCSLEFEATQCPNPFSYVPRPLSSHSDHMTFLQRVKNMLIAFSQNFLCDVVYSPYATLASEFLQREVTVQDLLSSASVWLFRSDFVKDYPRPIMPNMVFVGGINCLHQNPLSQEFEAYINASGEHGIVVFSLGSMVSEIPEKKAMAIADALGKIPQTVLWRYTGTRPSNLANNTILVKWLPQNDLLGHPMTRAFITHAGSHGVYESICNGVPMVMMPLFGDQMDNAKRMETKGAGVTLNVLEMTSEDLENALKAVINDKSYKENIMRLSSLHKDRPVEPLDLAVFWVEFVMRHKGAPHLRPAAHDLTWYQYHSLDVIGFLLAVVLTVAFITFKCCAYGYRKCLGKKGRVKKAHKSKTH
Sequence of UniProt Q9Y274 (whole entry, looked up): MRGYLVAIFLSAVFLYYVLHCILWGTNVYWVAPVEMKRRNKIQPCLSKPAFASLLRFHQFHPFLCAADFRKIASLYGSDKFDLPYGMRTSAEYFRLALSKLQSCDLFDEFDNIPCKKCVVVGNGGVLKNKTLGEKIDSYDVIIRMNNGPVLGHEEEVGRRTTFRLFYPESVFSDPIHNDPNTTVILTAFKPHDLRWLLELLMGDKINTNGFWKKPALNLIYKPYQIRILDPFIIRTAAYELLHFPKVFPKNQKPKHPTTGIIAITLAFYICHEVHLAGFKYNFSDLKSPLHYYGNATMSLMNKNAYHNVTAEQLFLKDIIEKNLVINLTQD
Sequence of UniProt J9VYP5 (whole entry, looked up): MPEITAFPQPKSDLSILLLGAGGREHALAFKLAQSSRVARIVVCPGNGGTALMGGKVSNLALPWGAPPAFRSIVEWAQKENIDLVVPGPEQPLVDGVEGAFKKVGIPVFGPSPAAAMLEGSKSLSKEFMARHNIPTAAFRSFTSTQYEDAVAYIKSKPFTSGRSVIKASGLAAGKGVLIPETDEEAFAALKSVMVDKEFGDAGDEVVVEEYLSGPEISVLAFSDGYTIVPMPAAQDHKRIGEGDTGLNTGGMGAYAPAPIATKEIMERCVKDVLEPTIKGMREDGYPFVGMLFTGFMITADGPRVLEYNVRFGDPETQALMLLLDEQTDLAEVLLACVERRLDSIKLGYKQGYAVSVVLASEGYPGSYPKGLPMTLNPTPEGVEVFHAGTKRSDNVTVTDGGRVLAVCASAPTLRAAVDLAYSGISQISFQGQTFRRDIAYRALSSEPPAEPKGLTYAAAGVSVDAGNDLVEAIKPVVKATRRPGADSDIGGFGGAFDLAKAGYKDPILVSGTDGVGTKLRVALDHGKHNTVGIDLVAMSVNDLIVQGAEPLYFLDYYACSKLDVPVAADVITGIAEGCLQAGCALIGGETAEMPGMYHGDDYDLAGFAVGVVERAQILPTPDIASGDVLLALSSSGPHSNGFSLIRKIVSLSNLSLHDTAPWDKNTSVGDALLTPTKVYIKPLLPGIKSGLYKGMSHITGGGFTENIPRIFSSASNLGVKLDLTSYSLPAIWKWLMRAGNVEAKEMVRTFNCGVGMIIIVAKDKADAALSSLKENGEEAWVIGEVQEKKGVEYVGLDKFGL

Molecule | substrate | test system | conditions | Km
ST3GAL6 (Homo sapiens, UniProt Q9Y274) | CC(=O)N[C@H]1[C@H](O[C@H]2[C@@H](O)[C@@H](CO)O[C@@H](Oc3ccc([N+](=O)[O-])cc3)[C@@H]2O)O[C@H](CO)[C@@H](O[C@@H]2O[C@H](CO)[C@H](O)[C@H](O)[C@H]2O)[C@@H]1O |  | pH 6, together with: CMP-Neu5Ac | 210 µM
ADE5,7 (Cryptococcus neoformans, UniProt J9VYP5) | Nc1ncnc2c1ncn2[C@@H]1O[C@H](COP(=O)(O)OP(=O)(O)OP(=O)(O)O)[C@@H](O)[C@H]1O |  | pH 8, 37 °C, apparent | 48 µM
B1 (SULT1A1 I89A) | Oc1ccc2ccccc2c1 |  | pH 7.2, 25 °C, together with: PAPS 0.020–0.50 µM | 2.7 µM
B2 | COc1c(Cl)ccc(Cl)c1C(=O)O |  | apparent, together with: NADH 1 mM | 42 µM
B3 (enzyme D382A) | O=P(O)(O)O |  | pH 6.5, 25 °C, apparent, not purified | 57.2 µM
UGT1A1 (Homo sapiens, UniProt P22309) | COc1cc2c(cc1CC=C(C)C)C(=O)C[C@@H](c1ccc(O)cc1)O2 |  | pH 7.4, 37 °C | 3 µM
protein (Trypanosoma brucei, UniProt Q382C3) | Nc1ccn([C@@H]2O[C@H](COP(=O)(O)OP(=O)(O)OP(=O)(O)O)[C@@H](O)[C@H]2O)c(=O)n1 |  | pH 7.5, together with: ethanolamine-phosphate 0.1 mM | 12.7 µM
B4 (SULT1B1 E275K) | Nc1ncnc2c1ncn2[C@@H]1O[C@H](COP(=O)(O)OS(=O)(=O)O)[C@@H](OP(=O)(O)O)[C@H]1O |  | pH 7.4, 37 °C, unpaired subunit, together with: 1-naphthol | 1.58 µM
enzyme (Sphingomonas paucimobilis, UniProt Q76LC4) | O=[N+]([O-])c1ccc(O[C@@H]2O[C@@H](CO)[C@H](O)[C@@H](O)[C@H]2O)cc1 |  | pH 8, 37 °C | 2440 µM
B5 (ADA) | Nc1ncnc2c1ncn2[C@H]1C[C@H](O)[C@@H](CO)O1 | HEK293, cell homogenate | pH 5.8, 37 °C, not purified | 51.3 µM
B6 (asnB E349D) | N[C@@H](CC(=O)O)C(=O)O |  | pH 8, 37 °C, apparent, together with: L-glutamine 20 mM | 130 µM
B7 (Mj-MAT W387F/Y170W) | CSCC[C@H](N)C(=O)O |  | 55 °C, together with: ATP 2.5 mM, methionine 0.05-1 mM | 1000 µM
B8 (CODH) | O=C1C=CC(=O)C=C1 |  | pH 7.2, 25 °C, anaerobic, together with: CO saturating | 16.4 µM

For quick reference, copied from above:
Molecule | substrate | test system | conditions | Km
B2 | COc1c(Cl)ccc(Cl)c1C(=O)O |  | apparent, together with: NADH 1 mM | 42 µM
